Experimental data of several laboratories.
Lines come from different studies, so protocols differ.

For Oc1c(Cl)cc(Cl)c2cccnc12, the MIC was 37.4 µM (Listeria monocytogenes; microbial growth, agar dilution).
CC[C@@H](C)[C@@H](NC(=O)[C@@H](C)NC(=O)[C@@H](CCCCN)NC(=O)[C@@H](CC(C)C)NC(=O)[C@@H](CC(C)C)NC(=O)[C@H](NC(=O)[C@@H](CCCCN)NC(=O)[C@@H](CC(C)C)NC(=O)[C@@H](CCCCN)NC(=O)[C@@H](CCCCN)NC(=O)[C@@H](CCCCN)NC(=O)[C@@H](CCCCN)NC(=O)[C@@H](C)NC(=O)[C@@H](CCCCN)NC(=O)[C@@H](CO)NC(=O)[C@@H](Cc1ccccc1)NC(=O)[C@H](NC(=O)[C@@H](CCCCN)NC(=O)[C@@H](CC(C)C)NC(=O)[C@@H](Cc1ccccc1)NC(=O)[C@@H](CO)NC(=O)[C@@H](CCCCN)NC(=O)[C@@H](Cc1c[nH]c2ccccc12)NC(=O)[C@@H](CCCCN)NC(C)=O)[C@H](C)O)[C@H](C)O)C(=O)N[C@H](CO)C(=O)N[C@H](CCCCN)C(N)=O gave an MIC of 1.2 µM (Acinetobacter baumannii; 689, Mueller-Hinton broth; 24 h, 37 °C).
The MIC of N#Cc1ccc2cccc(O)c2n1 is reported as greater than 1500 µM (most tested bacterial strains; agar dilution).
CC(=O)N[C@H](CCCCN)C(=O)N[C@H](CC(C)C)C(=O)N[C@H](CCCCN)C(=O)N[C@H](CO)C(=O)N[C@H](CC(C)C)C(=O)N[C@H](CC(C)C)C(=O)N[C@H](CCCCN)C(=O)N[C@@H](C(=O)N[C@H](CC(C)C)C(=O)N[C@H](CO)C(=O)N[C@H](CCCCN)C(=O)N[C@H](C)C(=O)N[C@H](CCCCN)C(=O)N[C@H](CCCCN)C(=O)N[C@H](CCCCN)C(=O)N[C@H](CCCCN)C(=O)N[C@H](CC(C)C)C(=O)N[C@H](CCCCN)C(=O)N[C@@H](C(=O)N[C@H](CC(C)C)C(=O)N[C@H](CC(C)C)C(=O)N[C@H](CCCCN)C(=O)N[C@H](C)C(=O)N[C@H](CC(C)C)C(=O)N[C@H](CO)C(=O)N[C@H](CCCCN)C(N)=O)[C@H](C)O)[C@H](C)O gave an MIC of 0.7 µM (Acinetobacter baumannii; broth microdilution; ATCC 17978; 24 h, 37 °C).
Oc1c(Br)ccc2cccnc12 has an MIC of 35.7 µM (Achromobacter xylosoxidans; agar dilution; ATCC 27061).
CC1(C)S[C@@H]2[C@H](NC(=O)[C@H](NC(=O)C3=C(O)C(c4ccccc4F)NC3=O)c3ccccc3)C(=O)N2[C@H]1C(=O)O (stereo partly drawn) has an MIC of 12.5 µg/mL (Escherichia coli; broth microdilution; BW25113; 18 h, with: 2,2'-bipyridyl 30 µg/mL and CCCP 50 µg/mL).
For O=c1c2ccccc2sn1-c1cc(Br)cc(Br)c1, the MIC was 6.25 µg/mL (Candida albicans; growth, broth dilution; ATCC MYA-2876 (susceptible); MIC-0).
COC1C=COC2(C)Oc3c(C)c(O)c4c(c3C2=O)C2=NC3(CCN(CC(C)C)CC3)NC2=C(NC(=O)C(C)=CC=CC(C)C(O)C(C)C(O)C(C)C(OC(=O)c2cccnc2)C1C)C4=O (stereo not drawn) has an MIC of 0.024 µM (Mycobacteroides abscessus; microbial growth; ATCC19977).
For CC[C@@H](C)[C@@H](NC(=O)[C@@H](C)NC(=O)[C@@H](CCCCN)NC(=O)[C@@H](CC(C)C)NC(=O)[C@@H](CC(C)C)NC(=O)[C@H](NC(=O)[C@@H](CCCCN)NC(=O)[C@@H](CC(C)C)NC(=O)[C@@H](C)NC(=O)[C@@H](CCCCN)NC(=O)[C@@H](CCCCN)NC(=O)[C@@H](CCCCN)NC(=O)[C@@H](C)NC(=O)[C@@H](CCCCN)NC(=O)[C@@H](CO)NC(=O)[C@@H](Cc1ccccc1)NC(=O)[C@H](NC(=O)[C@@H](CCCCN)NC(=O)[C@@H](CC(C)C)NC(=O)[C@@H](Cc1ccccc1)NC(=O)[C@@H](CO)NC(=O)[C@@H](CCCCN)NC(=O)[C@@H](Cc1c[nH]c2ccccc12)NC(=O)[C@@H](CCCCN)NC(C)=O)[C@H](C)O)[C@H](C)O)C(=O)N[C@H](CO)C(=O)N[C@H](CCCCN)C(N)=O, the MIC was 0.7 µM (Acinetobacter baumannii; 1012, Mueller-Hinton broth; 24 h, 37 °C).
The MIC of CO[C@@H]1[C@@H](O[C@@H]2O[C@H](C)[C@@H](O[C@H]3C[C@@](C)(O)[C@@H](OC(=O)CC(C)C)[C@H](C)O3)[C@H](N(C)C)[C@H]2O)[C@@H](CC=O)C[C@@H](C)[C@@H](O[C@H]2CC[C@H](N(C)C)[C@@H](C)O2)/C=C/C=C/C[C@@H](C)OC(=O)C[C@H]1O is reported as 4 to 16 µM (Staphylococcus aureus, Staphylococcus epidermidis, Bacillus subtilis; incl. MRSA; range over four strains).
For CC[C@@H](C)[C@@H](NC(=O)[C@@H](C)NC(=O)[C@@H](CCCCN)NC(=O)[C@@H](CC(C)C)NC(=O)[C@@H](C)NC(=O)[C@H](NC(=O)[C@@H](CCCCN)NC(=O)[C@@H](CC(C)C)NC(=O)[C@H](NC(=O)[C@@H](CCCCN)NC(=O)[C@@H](CCCCN)NC(=O)[C@@H](CCCCN)NC(=O)[C@@H](C)NC(=O)[C@@H](CCCCN)NC(=O)[C@@H](CO)NC(=O)[C@@H](Cc1ccccc1)NC(=O)[C@H](NC(=O)[C@@H](CCCCN)NC(=O)[C@@H](CC(C)C)NC(=O)[C@@H](Cc1ccccc1)NC(=O)[C@@H](CO)NC(=O)[C@@H](CCCCN)NC(=O)[C@@H](Cc1c[nH]c2ccccc12)NC(=O)[C@@H](CCCCN)NC(C)=O)[C@H](C)O)C(C)C)[C@H](C)O)C(=O)N[C@H](CO)C(=O)N[C@H](CCCCN)C(N)=O, the MIC was 0.7 µM (Acinetobacter baumannii; 821, Mueller-Hinton broth; 24 h, 37 °C).
With CCCCCCCCCCCCCCCC(=O)O[C@H]1[C@H](C)O[C@@H](O[C@H]2[C@H](N(C)C)[C@@H](O)[C@H](O[C@H]3[C@@H](CC=O)C[C@@H](C)[C@@H](O[C@H]4CC[C@H](N(C)C)[C@@H](C)O4)/C=C/C=C/C[C@@H](C)OC(=O)C[C@@H](O)[C@@H]3OC)O[C@@H]2C)C[C@@]1(C)O the MIC was 4 to 32 µM (Staphylococcus aureus, Staphylococcus epidermidis, Bacillus subtilis; incl. MRSA; range over four strains).

Repeated from above:
The MIC of CO[C@@H]1[C@@H](O[C@@H]2O[C@H](C)[C@@H](O[C@H]3C[C@@](C)(O)[C@@H](OC(=O)CC(C)C)[C@H](C)O3)[C@H](N(C)C)[C@H]2O)[C@@H](CC=O)C[C@@H](C)[C@@H](O[C@H]2CC[C@H](N(C)C)[C@@H](C)O2)/C=C/C=C/C[C@@H](C)OC(=O)C[C@H]1O is reported as 4 to 16 µM (Staphylococcus aureus, Staphylococcus epidermidis, Bacillus subtilis; incl. MRSA; range over four strains).
